Results collected from several papers.
Each line is one published result; not all experiments were run side by side.
Cell line: HeLa

Structure (SMILES) | effect on | method | item | time | with | IC50
O=C(Cn1cc(COc2ncnc3[nH]cnc23)nn1)NCc1ccc(Cl)cc1 | cell growth or viability | MTT | – | – | – | > 100 µM
COc1cc([C@@H]2c3cc4c(cc3[C@@H](O[C@@H]3O[C@@H]5CO[C@@H](C)O[C@H]5[C@H](O)[C@H]3O)[C@H]3COC(=O)[C@H]23)OCO4)cc(OC)c1O | cell growth or viability | – | – | 48 h | – | 3.2 µM
O=C(Cn1cc(COc2ncnc3[nH]cnc23)nn1)Nc1ccc(F)c(Cl)c1 | cell growth or viability | MTT | – | – | – | 8.85 µM
O=C(/C=C/c1ccc(O)c(O)c1)c1ccc(O)cc1O | cell growth or viability | MTT | – | 72 h | – | 8.66 µM
CO[C@@]12[C@H](COC(N)=O)C3=C(C(=O)C(C)=C(N)C3=O)N1C[C@@H]1N[C@@H]12 | cell growth or viability | – | – | 48 h | – | 1.44 µM
CC(=NN=C(N)[S-])C(C)=NN=C(N)[S-].N.N.O=[N+]([O-])[O-].[Co+3] | cell growth or viability | MTT | – | – | – | > 500 µM
C=C1C(=O)O[C@@H]2/C=C(\C)CC/C=C(/C(=O)OC)[C@H](OC(C)=O)[C@@H](OC(=O)[C@]3(C)O[C@@H]3C)[C@@H]12 | cell growth or viability | – | – | 48 h | – | 5.99 µM
COc1cccc(NC(=O)Cn2cc(COc3ncnc4[nH]cnc34)nn2)c1 | cell growth or viability | MTT | – | – | – | > 100 µM
O=C1/C(=C/c2ccc(O)c(O)c2)Oc2cc(O)ccc21 | cell growth or viability | MTT | – | 72 h | – | 78.8 µM
CCC(O)CC(=O)O[C@@H]1C[C@@H]2[C@@]3(C)CCC[C@](C)(CC)[C@@H]3CC[C@@]2(C)[C@@H]2C[C@@H](O)C3=C(C(=O)O[C@@H]3C)[C@@]12C (stereo partly shown) | cell growth or viability | CCK-8 | – | 24 h | – | ≤ 25 µM
C=C1C(=O)O[C@H]2[C@H]1CC/C(C)=C/CC[C@@]1(C)O[C@@H]21 | cell growth or viability | – | – | 24 h | – | 24.3 µM
CC(C=NN=C(N)[S-])=NN=C(N)[S-].O=[N+]([O-])[O-].[Co+3].c1c[nH]cn1.c1c[nH]cn1 | cell growth or viability | MTT | – | – | – | ~28 µM
COc1cccc2c1C(=O)c1c(O)c3c(c(O)c1C2=O)C[C@@](O)(C(=O)CO)C[C@@H]3O[C@H]1C[C@H](N)[C@H](O)[C@H](C)O1 | cell growth or viability | MTT | – | 72 h | – | 0.12 µM
CC(C=NNC(N)=S)=NNC(N)=S | cell growth or viability | MTT | – | – | – | 0.027 µM
O=C1NCCc2c(OCCCCN3CCCCC3)cccc21 | H1R promoter reporter gene | – | – | – | PMA 100 nM for 10 h | 59 µM
CC(=O)O[C@H]1C(=O)[C@@]2(C)[C@H]([C@H](OC(=O)c3ccccc3)[C@]3(O)C[C@H](OC(=O)[C@H](O)[C@@H](NC(=O)c4ccccc4)c4ccccc4)C(C)=C1C3(C)C)[C@]1(OC(C)=O)CO[C@@H]1C[C@@H]2O | cell growth or viability | – | – | 48 h | – | 0.0067 µM
C=CC(=O)Nc1cccc(C(=O)Nc2ccc(Nc3nccc(-c4cccnc4)n3)cc2)c1 | c-Jun phosphorylation | TR-FRET | phospho-c-Jun Ser73 | – | – | ~0.1 µM
C=C1C(=O)O[C@H]2[C@H]1[C@H](OC(=O)[C@@]1(C)O[C@H]1C)[C@@H](OC(C)=O)/C(C(=O)OC)=C\CC[C@@]1(C)O[C@H]21 | cell growth or viability | – | – | 48 h | – | 6.55 µM
O=c1[nH]cc(F)c(=O)[nH]1 | cell growth or viability | – | – | 96 h | – | 0.54 µM

Repeated from above:
Structure (SMILES) | effect on | method | item | time | with | IC50
CC(=O)O[C@H]1C(=O)[C@@]2(C)[C@H]([C@H](OC(=O)c3ccccc3)[C@]3(O)C[C@H](OC(=O)[C@H](O)[C@@H](NC(=O)c4ccccc4)c4ccccc4)C(C)=C1C3(C)C)[C@]1(OC(C)=O)CO[C@@H]1C[C@@H]2O | cell growth or viability | – | – | 48 h | – | 0.0067 µM
C=CC(=O)Nc1cccc(C(=O)Nc2ccc(Nc3nccc(-c4cccnc4)n3)cc2)c1 | c-Jun phosphorylation | TR-FRET | phospho-c-Jun Ser73 | – | – | ~0.1 µM
C=C1C(=O)O[C@H]2[C@H]1[C@H](OC(=O)[C@@]1(C)O[C@H]1C)[C@@H](OC(C)=O)/C(C(=O)OC)=C\CC[C@@]1(C)O[C@H]21 | cell growth or viability | – | – | 48 h | – | 6.55 µM
